Experimental data pooled from the literature.
Each line is one published result; not all experiments were run side by side. Several values in a cell are separate wells, animals, samples, runs or records. Numbers after ± are the reported error.
B1: AIFM2 (ferroptosis suppressor protein 1); sequence looked up; chain GSQVSVESGALHVVIVGGGFGGIAAASQLQALNVPFMLVDMKDSFHHNVAALRASVETGFAKKTFISYSVTFKDNFRQGLVVGIDLKNQMVLLQGGEALPFSHLILATGSTGPFPGKFNEVSSQQAAIQAYEDMVRQVQRSRFIVVVGGGSAGVEMAAEIKTEYPEKEVTLIHSQVALADKELLPSVRQEVKEILLRKGVQLLLSERVSNLEELPLNEYREYIKVQTDKGTEVATNLVILCTGIKINSSAYRKAFESRLASSGALRVNEHLQVEGHSNVYAIGDCADVRTPKMAYLAGLHANIAVANIVNSVKQRPLQAYKPGALTFLLSMGRNDGVGQISGFYVGRLMVRLTKSRDLFVSTSWKTMRQSPP
B2: calnexin; sequence looked up; chain HDGHDDDVIDIEDDLDDVIEEVEDSKPDTTAPPSSPKVTYKAPVPTGEVYFADSFDRGTLSGWILSKAKKDDTDDEIAKYDGKWEVEEMKESKLPGDKGLVLMSRAKHHAISAKLNKPFLFDTKPLIVQYEVNFQNGIECGGAYVKLLSKTPELNLDQFHDKTPYTIMFGPDKCGEDYKLHFIFRHKNPKTGIYEEKHAKRPDADLKTYFTDKKTHLYTLILNPDNSFEILVDQSVVNSGNLLNDMTPPVNPSREIEDPEDRKPEDWDERPKIPDPEAVKPDDWDEDAPAKIPDEEATKPEGWLDDEPEYVPDPDAEKPEDWDEDMDGEWEAPQIANPRCESAPGCGVWQRPVIDNPNYKGKWKPPMIDNPSYQGIWKPRKIPNPDFFEDLEPFRMTPFSAIGLELWSMTSDIFFDNFIICADRRIVDDWANDGWGLKKAADGAAEPGVVGQMIEAAEERPWLWVVYILTVALPVFLVILFCCSGKKQTSGMEYKKTDAPQPDVKEEEEEKEEEKDKGDEEEEGEEKLEEKQKSDAEEDGGTVSQEEEDRKPKAEEDEILNRSPRNRKPRRE
B3: Aurora kinase A; sequence looked up; chain MDRSKENCISGPVKATAPVGGPKRVLVTQQFPCQNPLPVNSGQAQRVLCPSNSSQRIPLQAQKLVSSHKPVQNQKQKQLQATSVPHPVSRPLNNTQKSKQPLPSAPENNPEEELASKQKNEESKKRQWALEDFEIGRPLGKGKFGNVYLAREKQSKFILALKVLFKAQLEKAGVEHQLRREVEIQSHLRHPNILRLYGYFHDATRVYLILEYAPLGTVYRELQKLSKFDEQRTATYITELANALSYCHSKRVIHRDIKPENLLLGSAGELKIADFGWSVHAPSSRRTTLCGTLDYLPPEMIEGRMHDEKVDLWSLGVLCYEFLVGKPPFEANTYQETYKRISRVEFTFPDFVTEGARDLISRLLKHNPSQRPMLREVLEHPWITANSSKPSNCQNKESASKQS
B4: CCT7; sequence looked up; chain MMPTPVILLKEGTDSSQGIPQLVSNISACQVIAEAVRTTLGPRGMDKLIVDGRGKATISNDGATILKLLDVVHPAAKTLVDIAKSQDAEVGDGTTSVTLLAAEFLKQVKPYVEEGLHPQIIIRAFRTATQLAVNKIKEIAVTVKKADKVEQRKLLEKCAMTALSSKLISQQKAFFAKMVVDAVMMLDDLLQLKMIGIKKVQGGALEDSQLVAGVAFKKTFSYAGFEMQPKKYHNPKIALLNVELELKAEKDNAEIRVHTVEDYQAIVDAEWNILYDKLEKIHHSGAKVVLSKLPIGDVATQYFADRDMFCAGRVPEEDLKRTMMACGGSIQTSVNALSADVLGRCQVFEETQIGGERYNFFTGCPKAKTCTFILRGGAEQFMEETERSLHDAIMIVRRAIKNDSVVAGGGAIEMELSKYLRDYSRTIPGKQQLLIGAYAKALEIIPRQLCDNAGFDATNILNKLRARHAQGGTWYGVDINNEDIADNFEAFVWEPAMVRINALTAASEAACLIVSVDETIKNPRSTVDAPTAAGRGRGRGRPH
B5: ARF4; sequence looked up; chain GLTISSLFSRLFGKKQMRILMVGLDAAGKTTILYKLKLGEIVTTIPTIGFNVETVEYKNICFTVWDVGGQDRIRPLWKHYFQNTQGLIFVVDSNDRERIQEVADELQKMLLVDELRDAVLLLFANKQDLPNAMAISEMTDKLGLQSLRNRTWYVQATCATQGTGLYEGLDWLSNELSKR
B6: ABCF1 protein; sequence looked up; chain MPKAPKQQPPEPEWIGDGESTSPSDKVVKKGKKDKKIKKTFFEELAVEDKQAGEEEKVLKEKEQQQQQQQQQQKKKRDTRKGRRKKDVDDDGEEKELMERLKKLSVPTSDEEDEVPAPKPRGGKKTKGGNVFAALIQDQSEEEEEEEKHPPKPAKPEKNRINKAVSEEQQPALKGKKGKEEKSKGKAKPQNKFAALDNEEEDKEEEIIKEKEPPKQGKEKAKKAEQGSEEEGEGEEEEEEGGESKADDPYAHLSKKEKKKLKKQMEYERQVASLKAANAAENDFSVSQAEMSSRQAMLENASDIKLEKFSISAHGKELFVNADLYIVAGRRYGLVGPNGKGKTTLLKHIANRALSIPPNIDVLLCEQEVVADETPAVQAVLRADTKRLKLLEEERRLQGQLEQGDDTAAERLEKVYEELRATGAAAAEAKARRILAGLGFDPEMQNRPTQKFSGGWRMRVSLARALFMEPTLLMLDEPTNHLDLNAVIWLNNYLQGWRKTLLIVSHDQGFLDDVCTDIIHLDAQRLHYYRGNYMTFKKMYQQKQKELLKQYEKQEKKLKELKAGGKSTKQAEKQTKEALTRKQQKCRRKNQDEESQEAPELLKRPKEYTVRFTFPDPPPLSPPVLGLHGVTFGYQGQKPLFKNLDFGIDMDSRICIVGPNGVGKSTLLLLLTGKLTPTHGEMRKNHRLKIGFFNQQYAEQLRMEETPTEYLQRGFNLPYQDARKCLGRFGLESHAHTIQICKLSGGQKARVVFAELACREPDVLILDEPTNNLDIESIDALGEAINEYKGAVIVVSHDARLITETNCQLWVVEEQSVSQIDGDFEDYKREVLEALGEVMVSRPRE

B1 (AIFM2)
log2 fold change (peptide binding, SILAC pull-down; concentration not given; baseline: non-acetylated over acetylated NIT1 peptide): 0.512

glucagon
plasma concentration (ELISA; human, non-diabetic, femoral artery plasma; intravenous infusion, 0.12 ng/kg/min, 160 to 180 min): 0.0718 ± 0.0033 ng/mL

caspofungin
radial growth ratio (Aspergillus fumigatus; wild type; concentration not given; baseline: untreated control): 0.35 and 0.366 and 0.373

PKYVKQNTLKLAT
antigen-specific CD4 T cells (stimulated healthy donor PBMCs; multimer staining, item: DRB1*01:01 tetramer; peptide; concentration not given, undiluted; baseline: CD4 T cells): 1.58%

aspterric acid
inhibition (hypocotyl length; Arabidopsis thaliana Col-0 seeds; 3.125 µg/mL): 22.6%

B2 (calnexin)
log2 fold change (peptide binding, SILAC pull-down; concentration not given; baseline: non-acetylated over acetylated NIT1 peptide): -0.15

HVLVMSATRR
phosphorus (peptide, C57BL/6J mice, male, serum; subcutaneous osmotic pump, 3 mg/kg/day peptide basis, 8 weeks): 8 mg/dL and 8.7 mg/dL and 6.9 mg/dL

Polymyxin B
MIC (Escherichia coli; broth microdilution, MH medium; carbapenem-resistant NCCP 16044; 16 h, 37 °C): 2 µM

PCSEETPAISPSK (dUTPase)
log2 fold change (peptide binding, SILAC pull-down; concentration not given; baseline: non-acetylated over acetylated NIT1 peptide): -0.224

KISEYRHYV
specific lysis (ASPC1 (HLA-A2− HPV−); 111In release; peptide; concentration not given, 16 h, E:T 25:1, IVS 5, added: peptide-generated T-cell line): 0.2% and 0.5%

insulin human
fold change (item: RIMS1 mRNA; uninfected mouse, brain; i.p., dose not given; baseline: PBS): 1.41

(−)-antroquinonol A
IC50 (Hep3B; cytotoxicity, MTS): 8.91 µM and 7.21 µM

YMLDLQPEV
specific lysis (Ca-Ski (HLA-A2+ HPV+); 111In release; peptide; concentration not given, 16 h, E:T 25:1 IVS 5, added: peptide-generated T-cell line): 27.8%

GWTLNSAGYLLGPHAVDNHRSFNDKHGFT-NH2 (C-amide)
mRNA level (RT-qPCR, item: Tgfb1; peptide, mouse, DSS-induced colitis, colon; ip, 3 µM, 3% DSS, unit not given; baseline: Gapdh): 1.8 and 1.48 and 2.47 and 1.79 and 2.06

pertussis toxin
phospho-PKA level (immunostaining, item: p-PKA; humanized UT (+/h+) mice, SAH model, Macrophages, F4/80+, peri-MCA; dose not given): 17.2 MFI and 19.2 MFI and 17.3 MFI

B3 (Aurora kinase A)
log2 fold change (peptide binding, SILAC pull-down; concentration not given; baseline: non-acetylated over acetylated NIT1 peptide): 0.448

heparin sodium
positive urine leukocyte esterase (healthy Chinese adult volunteers; continuous intravenous infusion, 8 IU/kg/h, 5 days): 25%

IINEEAADW
IC50 (Mamu-A1*02601 MHC class I; peptide binding; peptide, Chinese rhesus macaque): > 20 µM

colistin
radial growth ratio (Aspergillus fumigatus; wild type, minimal medium; concentration not given; baseline: untreated): 0.873 and 0.789 and 0.901 and 0.9 and 0.871 and 0.8 and 0.786 and 0.914

B4 (CCT7)
log2 fold change (peptide binding, SILAC pull-down; concentration not given; baseline: non-acetylated over acetylated NIT1 peptide): 1.8

nonaarginine
koff (PorA peptide pore; peptide binding, planar bilayer single-channel recording; 0.5 µM, pH 7.4, +35 mV, trans side, 150 mM KCl): 2700 ± 300 s⁻¹

mycosubtilin
maximum fusion (calcein leakage; DOPC/CHOL liposomes; concentration not given, added: 20 wt% PEG-8000): 51 ± 12%

Polymyxin B
MIC (Escherichia coli; broth microdilution; E25 clinical isolate; 20 h): 0.5 mg/L

AQAKINAKANEGR (BAG2)
log2 fold change (peptide binding, SILAC pull-down; concentration not given; baseline: non-acetylated over acetylated NIT1 peptide): 0.302

CCYHCQFCF
IC50 (Mamu-B*08301 MHC class I; peptide binding; peptide, Chinese rhesus macaque): > 20 µM

hexaarginine
kon (PorA peptide pore; peptide binding, planar bilayer single-channel recording; 0.5 µM, pH 7.4, -20 mV, cis side, 150 mM KCl): 1.85e+07 ± 2e+06 M⁻¹ s⁻¹

QLYNKPLCDV
IFN-γ release (HPV16 E6-specific T-cell line; ELISA; peptide, supernatant; concentration not given, 24 h, added: peptide-pulsed autologous B cells): 653 pg/mL

Polymyxin B
survival (mouse; intraperitoneal, 30 mg/kg single dose, day 2): 0%

DPDPE
retention time (RP-HPLC; HALO Peptide ES-C18 column; 25 µM, formic acid/methanol, 10 min gradient): 8.32 min

CIAQDNCTG
IC50 (Mamu-A1*02601 MHC class I; peptide binding; peptide, Chinese rhesus macaque): > 20 µM

B5 (ARF4)
log2 fold change (peptide binding, SILAC pull-down; concentration not given; baseline: non-acetylated over acetylated NIT1 peptide): 3.01

cisplatin
IC50 (HeLa; cell growth): 4 ± 1 µM

B6 (ABCF1 protein)
log2 fold change (peptide binding, SILAC pull-down; concentration not given; baseline: non-acetylated over acetylated NIT1 peptide): -1.98

GWTLNSAGYLLGPRRIDHLLMIKEMPIARGREEAPGA / YAVDNHRSFNDKHGFT-NH2 (C-amide)
mRNA level (RT-qPCR, item: Il1b; chicken, DSS-induced colitis, ileum; ip, 50 µM, unit not given; baseline: Actb): 0.0818 and 0.112 and 0.025 and 0.0709 and 0.0458 and 0.0342 and 0.0806

A few entries again:
pertussis toxin
phospho-PKA level (immunostaining, item: p-PKA; humanized UT (+/h+) mice, SAH model, Macrophages, F4/80+, peri-MCA; dose not given): 17.2 MFI and 19.2 MFI and 17.3 MFI

B3 (Aurora kinase A)
log2 fold change (peptide binding, SILAC pull-down; concentration not given; baseline: non-acetylated over acetylated NIT1 peptide): 0.448
